Measurements collected from several papers.
A part holds a random share of what one study measured. Positions count from the first letter of the parent shown.

Block 1
Target: Histone acetyltransferase KAT6A, both winged helices, GST fusion (KAT6A, Homo sapiens, UniProt Q92794, residues 1-181)
Method: protein binding microarray
Molecule type: double-stranded DNA, one strand shown
Medium: in vitro
Tested at: not given
Notes: 8-mer, flanks averaged, mean of 2 arrays, mostly near background
Relative to: not given
Direction: higher = stronger binding
Construct (chain): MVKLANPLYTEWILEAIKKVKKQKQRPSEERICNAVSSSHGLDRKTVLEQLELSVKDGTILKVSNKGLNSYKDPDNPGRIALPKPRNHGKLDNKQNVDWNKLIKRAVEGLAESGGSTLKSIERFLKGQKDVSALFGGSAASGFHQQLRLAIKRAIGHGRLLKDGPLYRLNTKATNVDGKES
| Strand | E-score |
| --- | --- |
| AAACCCGA | 0.212 |
| TCCGGGCA | 0.036 |
| CTCACGTA | -0.21 |
| TAATAGTA | -0.0652 |
| GAACTTAA | -0.015 |
| AGGCATGC | 0.0267 |
| CGGTGTAC | 0.179 |
| AACTTCTG | -0.0873 |
| AAATAGCC | 0.0589 |
| ACGTGTTC | 0.0151 |
| CTAAGCTC | -0.189 |
| AAAGTCTA | -0.0726 |
| CATATGAC | -0.0602 |
| CCAATTAA | -0.153 |
| AGTTATTA | -0.0394 |
| CATGTTTC | 0.132 |
| AATGGTAC | -0.0917 |
| GGCCTTAC | 0.0209 |
| AGGACAGG | -0.205 |
| GACGTAAC | -0.079 |
| CAGATTCC | 0.0324 |
| CTACCGCA | 0.212 |
| AACGTATG | -0.0488 |
| TACCCTGA | -0.0752 |
| CAAGTTGA | -0.146 |

Block 2
Target: Centromere-binding protein 1, full length, His-tagged (CBF1, Saccharomyces cerevisiae, UniProt P17106, residues 1-351)
Sequence of UniProt P17106 (whole entry, looked up): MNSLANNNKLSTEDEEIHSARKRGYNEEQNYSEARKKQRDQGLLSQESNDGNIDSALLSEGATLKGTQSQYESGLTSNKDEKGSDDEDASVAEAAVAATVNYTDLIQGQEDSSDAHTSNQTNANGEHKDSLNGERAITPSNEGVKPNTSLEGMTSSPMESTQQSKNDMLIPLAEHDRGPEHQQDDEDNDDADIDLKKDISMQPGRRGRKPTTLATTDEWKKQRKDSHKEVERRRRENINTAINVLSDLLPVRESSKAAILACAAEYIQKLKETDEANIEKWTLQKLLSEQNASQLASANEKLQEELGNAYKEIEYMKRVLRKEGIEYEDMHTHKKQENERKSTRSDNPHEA
Method: competition protein-binding microarray
Molecule type: double-stranded DNA, one strand shown
Medium: in vitro
Tested at: 2 µM
Notes: whole 60-bp probe, lowest competitor level
With: Pho4 competitor, 0.05 µM
Direction: higher = stronger binding
| Strand | fluorescence intensity [a.u.] |
| --- | --- |
| TTTTAGAGGAAAGAGAACGTGGTGAAAAAGTCAAAAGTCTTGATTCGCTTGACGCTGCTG | 105 |
| GCTGGCCTCGCCCGTCACAAAAGAAATGAGCTCACTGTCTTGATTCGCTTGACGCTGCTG | 66.9 |
| CATTATGGTAATTAGCACGTGGTCGATGGGGATTGTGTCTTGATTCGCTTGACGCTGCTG | 1880 |
| CTAACGAAGGTTTGTACCGTGGGTGACAAGCCAAGTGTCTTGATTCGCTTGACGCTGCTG | 64.5 |
| AAAGCGGTAATTTGGAACGTGGGTGCAGATATCTATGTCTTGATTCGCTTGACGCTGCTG | 98.6 |
| GACAAGCATTTCGACCACGTTTTGTACAAGGAATCCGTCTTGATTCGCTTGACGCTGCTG | 169 |
| AAAGCGGTAATTTGACGGGTGGGTGCAGATATCTATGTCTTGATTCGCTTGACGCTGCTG | 83.7 |
| AAAGCGGTAATTTGTGAAGTGGGTGCAGATATCTATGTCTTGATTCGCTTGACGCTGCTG | 79.6 |
| TGAACCCTTACTTACTGCGTGACTCGGTTGATTTAGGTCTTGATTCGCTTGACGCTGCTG | 169 |
| GTCCAGTGCTCATCGCACGTGCATCTGGATTTTGTGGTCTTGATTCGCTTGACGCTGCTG | 1220 |
| GCTGCGGCGGAAAAAAACGTGACGGCTTTTAGCACAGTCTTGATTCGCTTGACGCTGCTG | 951 |
| GAAAGCACTTTACTTCACGTGGGTACTATTCAGGTTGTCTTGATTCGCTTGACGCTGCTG | 1020 |
| ATTGAAGGTGTAGAGGCCGTGACGAATTGATGTGGTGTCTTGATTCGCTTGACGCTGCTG | 84.8 |
| CAATTTACATGTTCCAACGTGACTCGAGAAAGCATGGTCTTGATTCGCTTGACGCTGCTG | 675 |
| CCACCGCCGGATGCCTACGTGGTGAAGGGAGACAAAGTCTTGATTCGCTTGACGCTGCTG | 53 |
| GTAACGAAGCTTACCAGCATGATAATACCGTAAATCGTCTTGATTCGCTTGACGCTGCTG | 77.1 |
| CTAACGAAGGTTTATCACGTGTTTTACAAGCCAAGTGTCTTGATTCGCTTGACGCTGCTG | 4460 |
| TGTCAAGCCAGACTGGACGTGTGGATGGGGGGCAAAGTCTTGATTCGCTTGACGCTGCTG | 101 |
| AATTCCAATCAAAAAGTTGGTGTTAGGCTATACTGAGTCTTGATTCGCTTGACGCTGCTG | 72.5 |

Block 3
Target: UBE2G1 UBC core domain (UniProt P62253)
Sequence of UniProt P62253 (whole entry, looked up): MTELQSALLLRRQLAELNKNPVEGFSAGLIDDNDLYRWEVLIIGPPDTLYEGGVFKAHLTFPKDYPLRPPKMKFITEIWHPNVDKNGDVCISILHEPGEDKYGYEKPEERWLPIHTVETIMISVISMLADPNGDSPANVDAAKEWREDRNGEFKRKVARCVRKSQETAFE
Method: yeast two-hybrid
Medium: yeast
Notes: mostly zero background
Relative to: not given
Direction: higher = stronger interaction
B1: TRIM60 RING domain (UniProt Q495X7); chain ALVNLQEESSCPICLEYLKDPVTINCGHNFCRSCLSVSWKDLDDTFPCPVCRFCFPYKSFRR
B2: DEF8 RING domain (UniProt Q6ZN54); chain AGRLGCSLTEIHTLFAKHIKLDCERCQAKGFVCELCREGDVLFPFDSHTSVCADCSAVFHRDCYYDNSTTCPKCARLSLRK
B3: RNF122 RING domain (UniProt Q9H9V4); chain AKKLQLYGQTCAVCLEDFKGKDELGVLPCQHAFHRKCLVKWLEVRCVCPMCNKPIASPSEAT
B4: TRIM54 RING domain (UniProt Q9BYV2); chain SMDNLEKQLICPICLEMFSKPVVILPCQHNLCRKCANDVFQASNPLWQSRGSTTVSSGGRFRCPSCRHEVVLDRHGV
B5: RNF166 RING domain (UniProt Q96A37); chain GDSGLEAQYTCPICLEVYHRPVAIGSCGHTFCGECLQPCLQVPSPLCPLCRLPFDPKKVDK
B6: MEX3B RING domain (UniProt Q6ZN04); chain SGLRRKGSRDCSVCFESEVIAALVPCGHNLFCMECANRICEKSEPECPVCHTAVTQAIRIF
B7: ANAPC11 RING domain (UniProt Q9NYG5); chain GICRMAFNGCCPDCKVPGDDCPLVWGQCSHCFHMHCILKWLHAQQVQQHCPMCRQEWKFKE
| Molecule | lacZ reporter activity |
| --- | --- |
| B1 (TRIM60 RING domain) | 0 |
| B2 (DEF8 RING domain) | 0 |
| B3 (RNF122 RING domain) | 0 |
| AEADPLGRFTCPVCLEVYEKPVQVPCGHVFCSACLQECLKPKKPVCGVCRSALAPGVRAV (RNF114 RING domain (UniProt Q9Y508)) | 0 |
| B4 (TRIM54 RING domain) | 0 |
| B5 (RNF166 RING domain) | 0 |
| YCEMGSTFQLCKICAENDKDVKIEPCGHLMCTSCLTAWQESDGQGCPFCRCEIKGTEPII (CBLB RING domain (UniProt Q13191)) | 0 |
| LDAASGHPLVCPLCHGQYERPCLLDCFHDFCTGCLRGRATDGRLSCPLCQHQTLVKGPSG (Rnf207 RING domain (UniProt Q3V3A7)) | 0 |
| PEELAVNNDDCAICWDSMQAARKLPCGHLFHNSCLRSWLEQDTSCPTCRMSLNIADNNR (AMFR RING domain (UniProt Q9UKV5)) | 0 |
| B6 (MEX3B RING domain) | 0 |
| B7 (ANAPC11 RING domain) | 0 |

Block 4
Target: ABI1, truncated, D143A, DHFR fusion (Arabidopsis thaliana)
Method: DHFR PCA, deep sequencing
Medium: yeast
Notes: methotrexate growth selection, single substitutions
With: (+)-ABA 1.4 µM
Relative to: wild-type fitted maximum
Direction: higher = stronger binding
Starting sequence: PYL1, truncated, DHFR fusion (Arabidopsis thaliana); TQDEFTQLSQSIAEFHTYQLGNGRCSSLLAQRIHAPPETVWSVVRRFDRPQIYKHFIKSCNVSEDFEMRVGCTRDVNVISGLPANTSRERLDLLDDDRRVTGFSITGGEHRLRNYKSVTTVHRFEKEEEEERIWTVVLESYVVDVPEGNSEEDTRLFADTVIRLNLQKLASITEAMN
| Variant | relative binding score |
| --- | --- |
| N77F | 59% |
| D48E | 12.9% |
| V100R | 0.347% |
| L94A | 0.24% |
| S104G | -1.87% |
| E127Q | 68.4% |
| D48T | -1.16% |
| L8S | 7.78% |
| R24W | 1.25% |
| Q19V | 60.1% |
| V40R | 6.26% |
| K126W | 39.1% |
| E109P | -10.8% |
| N22D | 75.6% |

Excerpt of the above (block 3):
| Molecule | lacZ reporter activity |
| --- | --- |
| B1 (TRIM60 RING domain) | 0 |
| B2 (DEF8 RING domain) | 0 |
| B3 (RNF122 RING domain) | 0 |
| AEADPLGRFTCPVCLEVYEKPVQVPCGHVFCSACLQECLKPKKPVCGVCRSALAPGVRAV (RNF114 RING domain (UniProt Q9Y508)) | 0 |
| B4 (TRIM54 RING domain) | 0 |
| B5 (RNF166 RING domain) | 0 |
| YCEMGSTFQLCKICAENDKDVKIEPCGHLMCTSCLTAWQESDGQGCPFCRCEIKGTEPII (CBLB RING domain (UniProt Q13191)) | 0 |
| LDAASGHPLVCPLCHGQYERPCLLDCFHDFCTGCLRGRATDGRLSCPLCQHQTLVKGPSG (Rnf207 RING domain (UniProt Q3V3A7)) | 0 |
| PEELAVNNDDCAICWDSMQAARKLPCGHLFHNSCLRSWLEQDTSCPTCRMSLNIADNNR (AMFR RING domain (UniProt Q9UKV5)) | 0 |
| B6 (MEX3B RING domain) | 0 |
